Experimental data collected from several papers.
Each line is one published result; not all experiments were run side by side. ± gives the spread as reported.
UniProt P09960, sequence (whole entry, looked up): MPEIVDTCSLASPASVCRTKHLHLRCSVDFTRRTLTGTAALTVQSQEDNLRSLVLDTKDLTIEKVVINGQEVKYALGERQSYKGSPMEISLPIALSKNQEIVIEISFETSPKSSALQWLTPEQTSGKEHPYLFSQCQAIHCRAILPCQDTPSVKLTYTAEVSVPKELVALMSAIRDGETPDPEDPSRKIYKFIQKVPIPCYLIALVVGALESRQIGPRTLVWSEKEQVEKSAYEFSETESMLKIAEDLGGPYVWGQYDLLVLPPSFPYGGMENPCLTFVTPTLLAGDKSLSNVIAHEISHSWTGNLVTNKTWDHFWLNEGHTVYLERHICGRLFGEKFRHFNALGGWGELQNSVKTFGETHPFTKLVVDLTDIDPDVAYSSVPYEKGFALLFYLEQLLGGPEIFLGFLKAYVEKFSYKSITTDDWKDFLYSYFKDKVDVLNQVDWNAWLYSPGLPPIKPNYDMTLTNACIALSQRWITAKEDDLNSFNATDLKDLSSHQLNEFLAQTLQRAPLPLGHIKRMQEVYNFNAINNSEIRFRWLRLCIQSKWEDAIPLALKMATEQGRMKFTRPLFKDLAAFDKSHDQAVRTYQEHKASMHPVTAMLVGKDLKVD
UniProt Q9NQG5, sequence (whole entry, looked up): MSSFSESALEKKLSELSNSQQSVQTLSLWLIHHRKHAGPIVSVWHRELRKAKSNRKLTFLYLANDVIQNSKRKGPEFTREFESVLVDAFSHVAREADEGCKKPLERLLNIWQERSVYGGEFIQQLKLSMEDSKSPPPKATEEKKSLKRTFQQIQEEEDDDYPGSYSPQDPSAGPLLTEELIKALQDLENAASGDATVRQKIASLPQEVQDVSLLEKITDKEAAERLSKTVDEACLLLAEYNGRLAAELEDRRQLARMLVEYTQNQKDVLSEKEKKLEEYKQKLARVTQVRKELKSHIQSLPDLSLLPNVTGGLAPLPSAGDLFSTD
UniProt P10686, sequence (whole entry, looked up): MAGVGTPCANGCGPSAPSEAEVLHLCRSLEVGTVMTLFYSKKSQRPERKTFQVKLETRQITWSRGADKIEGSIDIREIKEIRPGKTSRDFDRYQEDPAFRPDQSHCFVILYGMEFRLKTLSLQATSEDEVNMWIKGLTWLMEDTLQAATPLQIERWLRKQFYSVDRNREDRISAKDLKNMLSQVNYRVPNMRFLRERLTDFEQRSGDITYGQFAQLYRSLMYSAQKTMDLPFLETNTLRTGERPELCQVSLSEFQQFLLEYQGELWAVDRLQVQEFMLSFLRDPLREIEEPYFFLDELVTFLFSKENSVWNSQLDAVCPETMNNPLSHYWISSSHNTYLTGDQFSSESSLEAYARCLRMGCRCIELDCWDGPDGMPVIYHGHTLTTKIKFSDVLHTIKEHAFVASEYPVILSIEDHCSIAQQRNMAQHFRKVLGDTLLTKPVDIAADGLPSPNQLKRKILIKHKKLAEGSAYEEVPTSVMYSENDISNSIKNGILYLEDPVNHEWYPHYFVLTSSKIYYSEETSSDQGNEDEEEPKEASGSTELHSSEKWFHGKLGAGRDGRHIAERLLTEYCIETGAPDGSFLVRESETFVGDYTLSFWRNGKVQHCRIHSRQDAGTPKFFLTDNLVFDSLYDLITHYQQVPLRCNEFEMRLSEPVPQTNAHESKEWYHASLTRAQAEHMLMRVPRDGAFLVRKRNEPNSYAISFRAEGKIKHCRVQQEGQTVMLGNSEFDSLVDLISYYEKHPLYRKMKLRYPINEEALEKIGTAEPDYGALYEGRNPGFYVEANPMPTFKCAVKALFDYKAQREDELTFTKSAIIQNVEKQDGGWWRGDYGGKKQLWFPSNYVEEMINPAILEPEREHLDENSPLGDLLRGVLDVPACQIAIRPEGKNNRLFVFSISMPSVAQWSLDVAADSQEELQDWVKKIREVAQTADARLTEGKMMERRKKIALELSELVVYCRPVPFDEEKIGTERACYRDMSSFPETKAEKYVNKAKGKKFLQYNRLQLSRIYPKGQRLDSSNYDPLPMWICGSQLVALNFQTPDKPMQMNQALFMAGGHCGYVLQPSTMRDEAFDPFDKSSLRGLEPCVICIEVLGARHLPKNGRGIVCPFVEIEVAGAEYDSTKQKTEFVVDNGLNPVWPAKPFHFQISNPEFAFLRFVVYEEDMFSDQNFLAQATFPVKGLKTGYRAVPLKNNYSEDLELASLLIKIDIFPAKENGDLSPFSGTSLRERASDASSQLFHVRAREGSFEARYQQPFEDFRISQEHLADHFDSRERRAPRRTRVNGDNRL
UniProt Q9Y294, sequence (whole entry, looked up): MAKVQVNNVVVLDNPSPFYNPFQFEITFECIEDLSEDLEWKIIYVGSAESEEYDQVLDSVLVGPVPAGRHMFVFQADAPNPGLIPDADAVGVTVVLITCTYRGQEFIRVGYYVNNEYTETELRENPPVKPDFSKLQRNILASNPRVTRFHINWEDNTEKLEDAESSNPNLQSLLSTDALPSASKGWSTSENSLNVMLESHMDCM
UniProt Q9NZC7, sequence (whole entry, looked up): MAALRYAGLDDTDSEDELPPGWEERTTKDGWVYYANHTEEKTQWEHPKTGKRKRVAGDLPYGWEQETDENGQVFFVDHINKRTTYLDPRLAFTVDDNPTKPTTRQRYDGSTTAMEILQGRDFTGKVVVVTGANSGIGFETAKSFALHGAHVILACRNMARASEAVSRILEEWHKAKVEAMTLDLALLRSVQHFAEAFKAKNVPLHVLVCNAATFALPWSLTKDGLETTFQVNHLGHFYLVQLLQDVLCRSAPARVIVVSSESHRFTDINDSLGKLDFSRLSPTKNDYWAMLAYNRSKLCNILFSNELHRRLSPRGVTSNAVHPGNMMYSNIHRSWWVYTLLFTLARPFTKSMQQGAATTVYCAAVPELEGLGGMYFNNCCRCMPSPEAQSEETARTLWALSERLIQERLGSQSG
UniProt P63104, sequence (whole entry, looked up): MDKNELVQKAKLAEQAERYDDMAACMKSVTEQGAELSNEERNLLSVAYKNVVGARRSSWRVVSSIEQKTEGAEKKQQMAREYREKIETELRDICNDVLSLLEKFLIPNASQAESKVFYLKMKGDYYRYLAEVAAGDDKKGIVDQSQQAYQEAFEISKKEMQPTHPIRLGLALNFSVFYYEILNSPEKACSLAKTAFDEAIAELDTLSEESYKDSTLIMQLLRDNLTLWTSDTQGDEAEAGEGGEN
UniProt P05067, sequence (whole entry, looked up): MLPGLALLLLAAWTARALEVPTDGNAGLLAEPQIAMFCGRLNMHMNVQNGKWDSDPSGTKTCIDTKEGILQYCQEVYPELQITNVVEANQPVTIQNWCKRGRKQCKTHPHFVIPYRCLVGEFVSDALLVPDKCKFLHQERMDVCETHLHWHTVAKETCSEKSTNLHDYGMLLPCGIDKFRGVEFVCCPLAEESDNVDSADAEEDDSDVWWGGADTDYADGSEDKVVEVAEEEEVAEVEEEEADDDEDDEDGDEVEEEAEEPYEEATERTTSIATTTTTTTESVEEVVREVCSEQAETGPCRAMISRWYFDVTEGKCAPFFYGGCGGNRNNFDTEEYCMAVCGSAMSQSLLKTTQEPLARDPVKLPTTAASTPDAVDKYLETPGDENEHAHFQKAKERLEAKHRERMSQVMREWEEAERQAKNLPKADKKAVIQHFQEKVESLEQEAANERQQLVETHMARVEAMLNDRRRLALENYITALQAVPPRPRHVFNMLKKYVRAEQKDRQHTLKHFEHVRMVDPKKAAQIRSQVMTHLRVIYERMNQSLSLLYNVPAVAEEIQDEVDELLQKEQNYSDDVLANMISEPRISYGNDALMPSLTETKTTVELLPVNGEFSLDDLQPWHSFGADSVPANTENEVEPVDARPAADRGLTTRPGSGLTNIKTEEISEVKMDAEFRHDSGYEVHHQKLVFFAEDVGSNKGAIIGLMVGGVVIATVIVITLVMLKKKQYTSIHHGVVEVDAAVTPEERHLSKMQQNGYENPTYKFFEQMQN
UniProt Q9UEF7, sequence (whole entry, looked up): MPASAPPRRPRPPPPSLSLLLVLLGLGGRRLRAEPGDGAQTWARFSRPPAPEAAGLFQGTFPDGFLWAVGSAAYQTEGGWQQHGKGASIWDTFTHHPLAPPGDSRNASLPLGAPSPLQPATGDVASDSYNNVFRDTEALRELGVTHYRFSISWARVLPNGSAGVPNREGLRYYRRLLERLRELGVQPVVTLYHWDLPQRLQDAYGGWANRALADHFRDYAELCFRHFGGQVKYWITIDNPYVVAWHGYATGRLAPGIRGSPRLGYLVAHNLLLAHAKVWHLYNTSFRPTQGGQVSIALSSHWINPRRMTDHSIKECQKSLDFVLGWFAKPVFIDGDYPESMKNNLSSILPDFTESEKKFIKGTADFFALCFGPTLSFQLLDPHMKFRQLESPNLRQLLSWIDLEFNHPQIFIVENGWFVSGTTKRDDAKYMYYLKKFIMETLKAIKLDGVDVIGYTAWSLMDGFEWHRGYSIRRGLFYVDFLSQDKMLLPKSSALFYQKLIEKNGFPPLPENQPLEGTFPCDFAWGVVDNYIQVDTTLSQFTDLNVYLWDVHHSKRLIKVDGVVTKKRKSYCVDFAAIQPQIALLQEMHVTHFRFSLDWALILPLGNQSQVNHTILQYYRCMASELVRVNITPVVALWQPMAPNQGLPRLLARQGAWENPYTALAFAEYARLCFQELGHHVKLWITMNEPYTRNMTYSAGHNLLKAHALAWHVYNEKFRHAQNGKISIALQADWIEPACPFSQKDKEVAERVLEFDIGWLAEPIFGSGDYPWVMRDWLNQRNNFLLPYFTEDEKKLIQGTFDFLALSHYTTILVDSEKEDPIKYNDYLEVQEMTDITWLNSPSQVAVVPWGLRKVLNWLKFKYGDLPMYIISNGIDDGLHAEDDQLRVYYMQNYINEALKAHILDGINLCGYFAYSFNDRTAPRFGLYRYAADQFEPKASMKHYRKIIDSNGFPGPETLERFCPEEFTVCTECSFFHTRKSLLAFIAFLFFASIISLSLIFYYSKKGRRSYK
UniProt P63165, sequence (whole entry, looked up): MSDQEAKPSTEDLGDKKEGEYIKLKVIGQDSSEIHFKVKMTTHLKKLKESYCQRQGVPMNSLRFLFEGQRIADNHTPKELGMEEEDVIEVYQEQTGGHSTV

SMILES | target | assay | test system | setting | Kd [µM]
CSCC[C@@H]1NC(=O)[C@@H](N)CSSC[C@@H](C(=O)O)NC(=O)[C@H]([C@@H](C)O)NC(=O)[C@H]([C@@H](C)O)NC(=O)[C@@H]2CCCN2C(=O)[C@H](CC(N)=O)NC(=O)[C@@H]2CCCN2C(=O)[C@H]([C@@H](C)O)NC1=O | Small ubiquitin-related modifier 1 (Homo sapiens, UniProt P63165) | binding, ITC |  |  | 1.8
CSCC[C@@H]1NC(=O)[C@H](CO)NC(=O)[C@@H](NC(=O)[C@H](CCC(N)=O)NC(=O)[C@H](CCCNC(=N)N)NC(C)=O)CSCc2cccc(c2)CSC[C@@H](C(=O)N[C@@H](Cc2ccccc2)C(=O)N[C@@H](Cc2ccc(O)cc2)C(=O)N[C@@H](Cc2c[nH]cn2)C(=O)N[C@@H](CO)C(=O)N[C@@H](CCCCN)C(N)=O)NC(=O)[C@H]([C@@H](C)O)NC1=O | PCNA (Homo sapiens, UniProt P12004) | binding, SPR |  |  | 3.86
Cc1n[nH]c2ncc(-c3ccc(Cl)cc3N)cc12 | LTA4H (Homo sapiens, UniProt P09960) |  |  |  | 2.7
CC(C)C[C@H](NC(=O)[C@H](CCCNC(=N)N)NC(=O)[C@H](CCC(=O)O)NC(=O)[C@H](CCCCN)NC(=O)[C@H](CCCNC(=N)N)NC(=O)[C@H](CCCCN)NC(=O)[C@H](CCC(=O)O)NC(=O)[C@H](CC(C)C)NC(=O)[C@H](Cc1ccccc1)NC(=O)[C@H](CCCNC(=N)N)NC(=O)[C@H](C)NC(=O)[C@H](CC(C)C)NC(=O)[C@H](CO)NC(=O)[C@]1(C)CCCC=CCCC[C@](C)(NC(=O)[C@@H]2CCCN2C(=O)[C@@H](NC(=O)[C@H](CO)NC(=O)c2ccc3c(c2)C(=O)OC32c3ccc(N(C)C)cc3Oc3cc(N(C)C)ccc32)C(C)C)C(=O)N[C@@H](C)C(=O)N[C@@H](CCCNC(=N)N)C(=O)N[C@@H](CCCCN)C(=O)N1)C(=O)O | Transcription factor MYC2 (MYC2, Arabidopsis thaliana, UniProt Q39204) | binding, fluorescence anisotropy |  | pH 8.0, MYC2 residues 55-259 | 1.5 ± 0.2
CC(=O)N[C@H]1CC(=O)N[C@@H](Cc2ccccc2)C(=O)N[C@@H](CCCNC(=N)N)C(=O)N[C@H](C(=O)N[C@@H](CC(=O)O)C(=O)N[C@H](C(=O)N[C@@H](CCCNC(=N)N)C(=O)N[C@@H](C)C(=O)N[C@@H](CCC(=O)O)C(=O)N[C@@H](CCCNC(=N)N)C(=O)N[C@@H](C)C(=O)N[C@@H](CCC(=O)O)C(N)=O)C(C)C)CNC1=O | Amyloid-beta precursor protein, Aβ40 fibrils (APP, Homo sapiens, UniProt P05067) | isothermal titration calorimetry | sodium phosphate buffer | pH 8, 25 °C, peptide titrated into protein | 2.9
CC(C)P(=S)(NP(=S)(C(C)C)C(C)C)C(C)C | Alpha-amylase (Bacillus subtilis, UniProt P00691) | fluorescence quenching |  | 304 K | 1090
C[C@@H](O)[C@H](NC(=O)[C@@H]1CCCN1C(=O)[C@H](COP(=O)(O)O)NC(=O)[C@H](Cc1ccc(O)cc1)NC(=O)[C@H](CO)NC(=O)[C@@H]1CCCN1C(=O)[C@H](COP(=O)(O)O)NC(=O)[C@@H](NC(=O)[C@@H]1CCCN1C(=O)[C@H](COP(=O)(O)O)NC(=O)[C@H](Cc1ccc(O)cc1)NC(=O)[C@H](CO)NC(=O)[C@@H]1CCCN1C(=O)[C@@H](N)CO)[C@@H](C)O)C(=O)N[C@@H](COP(=O)(O)O)C(=O)N1CCC[C@H]1C(=O)N[C@@H](CO)C(=O)N[C@@H](Cc1ccc(O)cc1)C(=O)N[C@@H](CO)C(=O)O | Regulation of nuclear pre-mRNA domain-containing protein 1B, CID domain (RPRD1B, Homo sapiens, UniProt Q9NQG5) | isothermal titration calorimetry |  | pH 7.5, 25 °C | > 1000
CC[C@H](C)[C@H](NC(=O)[C@H](CCCNC(=N)N)NC(=O)[C@H](CCCCN)NC(=O)[C@@H](NC(=O)[C@H](C)NC(=O)[C@H](CCCNC(=N)N)NC(=O)[C@H](CCC(N)=O)NC(=O)[C@H](CO)NC(=O)[C@H](CCCCN)NC(=O)[C@H](CC(N)=O)NC(=O)[C@@H](N)CCCNC(=N)N)[C@@H](C)O)C(=O)N[C@@H](CO)C(=O)N[C@@H](Cc1c[nH]cn1)C(=O)N[C@@H](CCSC)C(=O)N1CCC[C@H]1C(=O)N[C@@H](CO)C(=O)N[C@@H](CCCNC(=N)N)C(=O)N1CCC[C@H]1C(=O)N[C@@H](CCC(=O)O)C(=O)N[C@@H](CC(C)C)C(=O)N[C@@H](CO)C(=O)N[C@@H](C)C(=O)N[C@H](C(=O)N[C@@H](C)C(=O)N[C@H](C(=O)N[C@@H](CC(=O)O)C(=O)N[C@@H](CC(C)C)C(=O)N[C@@H](CCCNC(=N)N)C(=O)N[C@@H](CCCCN)C(=O)N[C@@H](CC(=O)O)C(=O)N[C@@H](CCCCN)C(=O)N[C@@H](C)C(=O)N[C@@H](CCCCN)C(=O)N[C@@H](COP(=O)(O)O)C(=O)N[C@@H](CS)C(=O)OC)[C@@H](C)O)C(C)C | YWHAZ (Homo sapiens, UniProt P63104) | binding, stopped-flow fluorescence polarization |  |  | 1.49
CC(C)C[C@H](NC(=O)[C@@H]1CCCN1C(=O)[C@H](CCCCN)NC(=O)c1ccc(O[C@@H]2O[C@H](CO)[C@H](O)[C@H](O)[C@H]2O)cc1)C(=O)NCCCC[C@H](NC(=O)[C@H](CC(C)C)NC(=O)[C@@H]1CCCN1C(=O)[C@H](CCCCN)NC(=O)c1ccc(O[C@@H]2O[C@H](CO)[C@H](O)[C@H](O)[C@H]2O)cc1)C(=O)N[C@@H](Cc1ccccc1)C(=O)N[C@@H](CS)C(N)=O | lecA (Pseudomonas aeruginosa, UniProt Q05097) | binding, ITC |  | pH 7.5 | 0.164
CC[C@H](C)[C@H](N)C(=O)NCC(=O)N[C@@H](Cc1c[nH]cn1)C(=O)N[C@@H](CO)C(=O)N1CCC[C@H]1C(=O)N1CCC[C@H]1C(=O)N1CCC[C@H]1C(=O)N[C@@H](C)C(=O)N[C@@H](Cc1ccc(O)cc1)C(=O)N[C@H](C(=O)N1CCC[C@H]1C(=O)N[C@@H](CCSC)C(=O)N[C@@H](CO)C(=O)O)[C@@H](C)O | WW domain-containing oxidoreductase, WW1-WW2 tandem domains (WWOX, Homo sapiens, UniProt Q9NZC7) | ITC | tandem WW1-WW2 domain | pH 7.8, 20 °C, some values lower limits only | > 100
CSCC[C@H](NC(=O)[C@H](CO)NC(=O)[C@H](CC(C)C)NC(=O)[C@H](CC(=O)O)NC(=O)[C@H](CC(C)C)NC(=O)[C@H](Cc1ccc(OP(=O)(O)O)cc1)NC(=O)[C@H](CCC(=O)O)NC(=O)[C@H](CCC(N)=O)NC(=O)[C@H](CC(N)=O)NC(=O)[C@H](CO)NC(=O)[C@@H](N)[C@@H](C)O)C(N)=O | 1-phosphatidylinositol 4,5-bisphosphate phosphodiesterase gamma-1, C-terminal SH2 domain (Rattus norvegicus, UniProt P10686) | C-SH2 domain binding, isothermal titration calorimetry |  | 25 °C | 1.81 ± 0.688
CC[C@H](C)[C@H](NC(=O)[C@@H](NC(=O)[C@H](Cc1c[nH]c2ccccc12)NC(=O)[C@H](CCC(=O)O)NC(=O)[C@H](CO)NC(=S)Nc1ccc2c(c1)C(=O)OC21c2ccc(O)cc2Oc2cc(O)ccc21)C(C)C)C(=O)N[C@H](C(=O)N[C@H](C(=O)N1CCC[C@H]1C(=O)N[C@@H](C)C(=O)N[C@@H](CC(C)C)C(=O)N[C@H](C(=O)N[C@@H](CC(N)=O)C(=O)N[C@@H](CC(C)C)C(=O)O)[C@@H](C)O)[C@@H](C)CC)C(C)C | Rgg transcriptional regulator (Streptococcus pneumoniae, UniProt A0A0E7KI02) | binder, fluorescence polarization |  | 20 min, pH 7.4, 20 °C, fluorescein-labelled peptide | 7.1 ± 0.4
CC(=O)NC1C(OC2C(O)C(CO)OC(OC3C(O)C(CO)OC(OC4C(O)C(O)OC(CO)C4O)C3NC(C)=O)C2OC2OC(C)C(O)C(O)C2O)OC(CO)C(O)C1O (stereo not drawn) | sly, domain 4 (Streptococcus suis, UniProt Q55996) | binding |  |  | 9.2
CSCC[C@H](NC(=O)[C@H](CCCNC(=N)N)NC(=O)[C@H](CO)NC(=O)[C@@H](NC(=O)[C@H](CC(=O)O)NC(=O)[C@H](CC(=O)O)NC(=O)CCCCCNC(=O)c1ccc2c(c1)C(=O)OC21c2ccc(O)cc2Oc2cc(O)ccc21)[C@@H](C)O)C(=O)N[C@@H](CCC(=O)O)C(=O)N[C@@H](CCCCN)C(=O)N[C@H](C(=O)N[C@@H](CC(=O)O)C(=O)O)C(C)C | FKBP5 (Homo sapiens, UniProt Q13451) | binding, FP |  | pH 7.4 | > 25
CSCC[C@H](NC(C)=O)C(=O)N[C@@H](CCC(N)=O)C(=O)N[C@H](C(=O)N[C@H]1CSCc2cccc(c2)CSC[C@@H](C(=O)NCC(=O)N[C@@H](Cc2ccc(O)cc2)C(=O)NCC(=O)N[C@@H](CO)C(=O)NCC(=O)N[C@@H](CO)C(=O)NCC(=O)N[C@@H](CO)C(=O)N[C@@H](CC(=O)O)C(=O)N[C@@H](Cc2ccc(O)cc2)C(=O)N[C@@H](CCCCN)C(=O)N[C@@H](CC(=O)O)C(=O)N[C@@H](CC(=O)O)C(=O)N[C@@H](CC(=O)O)C(=O)N[C@@H](CC(=O)O)C(=O)N[C@@H](CCCCN)C(N)=O)NC(=O)[C@H](CC(C)C)NC(=O)[C@H](C(C)C)NC(=O)[C@H](CC(C)C)NC(=O)[C@H](Cc2c[nH]cn2)NC(=O)[C@H](CCC(=O)O)NC(=O)[C@H](CCCCN)NC(=O)[C@H](Cc2ccccc2)NC(=O)[C@H]([C@@H](C)O)NC1=O)[C@@H](C)O | FGFR4 (Homo sapiens, UniProt P22455) | binding, BLI |  |  | > 10
CC[C@H](C)[C@H](NC(=O)[C@H](CCC(N)=O)NC(=O)[C@H](CS)NC(=O)[C@H](CC(C)C)NC(=O)[C@H](CCC(=O)O)NC(=O)[C@H](CCC(=O)O)NC(=O)[C@H](CC(=O)O)NC(=O)[C@@H](NC(=O)[C@@H](NC(=O)[C@@H](NC(=O)[C@H](CC(=O)O)NC(=O)[C@H](Cc1ccccc1)NC(=O)[C@@H](NC(=O)[C@H](C)NC(=O)[C@H](CC(=O)O)NC(=O)[C@H](CC(=O)O)NC(=O)CCNC(=O)CCNC(=O)CCCC[C@@H]1SC[C@@H]2NC(=O)N[C@@H]21)C(C)C)[C@@H](C)CC)[C@@H](C)CC)[C@@H](C)O)C(=O)N[C@@H](CCC(N)=O)C(=O)N[C@@H](CCC(=O)O)C(=O)N[C@@H](Cc1c[nH]c2ccccc12)C(N)=O | Gamma-aminobutyric acid receptor-associated protein (Homo sapiens, UniProt O95166) | binding, BLI |  | pH 7.4 | 1.4
CC(C)C[C@H](NC(=O)[C@@H]1CCCN1C(=O)[C@H](CC(=O)O)NC(=O)[C@H](CO)NC(=O)[C@H](C)NC(=O)c1cc(-c2ccccc2)nc2ccccc12)C(=O)NCC(=O)N[C@H](C(=O)N[C@H](C(=O)N[C@@H](CCCNC(=N)N)C(=O)NCC(=O)N[C@@H](CCCNC(=N)N)C(=O)N[C@@H](C)C(=O)N[C@@H](CCCNC(=N)N)C(=O)N[C@H](CCCNC(=O)c1ccc2c(c1)C(=O)OC21c2ccc(N(C)C)cc2Oc2cc(N(C)C)ccc21)C(N)=O)C(C)C)C(C)C | Klotho (Homo sapiens, UniProt Q9UEF7) | binding, BLI competition |  |  | 0.0016 ± 0.0004
CC[C@H](C)[C@H](NC(=O)[C@H](CCCNC(=N)N)NC(=O)[C@H](CCCNC(=N)N)NC(=O)[C@H](C)NC(=O)[C@H](CC(C)C)NC(=O)[C@H](CCCNC(=N)N)NC(=O)[C@H](C)NC(=O)[C@H](Cc1c[nH]c2ccccc12)NC(=O)[C@H](CCCCN)NC(=O)[C@H](CCC(=O)O)NC(=O)[C@H](CCC(=O)O)NC(=O)[C@@H](NC(=O)[C@H](CO)NC(=O)[C@H](C)NC(C)=O)[C@@H](C)O)C(=O)N[C@@H](C)C(=O)NCC(N)=O | Histone chaperone ASF1A (Homo sapiens, UniProt Q9Y294) | binding, ITC |  | pH 7.5 | 0.13

A few entries again:
SMILES | target | assay | test system | setting | Kd [µM]
CC[C@H](C)[C@H](NC(=O)[C@@H](NC(=O)[C@H](Cc1c[nH]c2ccccc12)NC(=O)[C@H](CCC(=O)O)NC(=O)[C@H](CO)NC(=S)Nc1ccc2c(c1)C(=O)OC21c2ccc(O)cc2Oc2cc(O)ccc21)C(C)C)C(=O)N[C@H](C(=O)N[C@H](C(=O)N1CCC[C@H]1C(=O)N[C@@H](C)C(=O)N[C@@H](CC(C)C)C(=O)N[C@H](C(=O)N[C@@H](CC(N)=O)C(=O)N[C@@H](CC(C)C)C(=O)O)[C@@H](C)O)[C@@H](C)CC)C(C)C | Rgg transcriptional regulator (Streptococcus pneumoniae, UniProt A0A0E7KI02) | binder, fluorescence polarization |  | 20 min, pH 7.4, 20 °C, fluorescein-labelled peptide | 7.1 ± 0.4
CSCC[C@H](NC(=O)[C@H](CO)NC(=O)[C@H](CC(C)C)NC(=O)[C@H](CC(=O)O)NC(=O)[C@H](CC(C)C)NC(=O)[C@H](Cc1ccc(OP(=O)(O)O)cc1)NC(=O)[C@H](CCC(=O)O)NC(=O)[C@H](CCC(N)=O)NC(=O)[C@H](CC(N)=O)NC(=O)[C@H](CO)NC(=O)[C@@H](N)[C@@H](C)O)C(N)=O | 1-phosphatidylinositol 4,5-bisphosphate phosphodiesterase gamma-1, C-terminal SH2 domain (Rattus norvegicus, UniProt P10686) | C-SH2 domain binding, isothermal titration calorimetry |  | 25 °C | 1.81 ± 0.688
